Published values gathered from unrelated publications.
Each line is one published result; not all experiments were run side by side. Several values in a cell are separate wells, animals, samples, runs or records.
Target: Protein kinase C theta type (PRKCQ, Homo sapiens, UniProt Q04759)
Sequence of UniProt Q04759 (whole entry, looked up): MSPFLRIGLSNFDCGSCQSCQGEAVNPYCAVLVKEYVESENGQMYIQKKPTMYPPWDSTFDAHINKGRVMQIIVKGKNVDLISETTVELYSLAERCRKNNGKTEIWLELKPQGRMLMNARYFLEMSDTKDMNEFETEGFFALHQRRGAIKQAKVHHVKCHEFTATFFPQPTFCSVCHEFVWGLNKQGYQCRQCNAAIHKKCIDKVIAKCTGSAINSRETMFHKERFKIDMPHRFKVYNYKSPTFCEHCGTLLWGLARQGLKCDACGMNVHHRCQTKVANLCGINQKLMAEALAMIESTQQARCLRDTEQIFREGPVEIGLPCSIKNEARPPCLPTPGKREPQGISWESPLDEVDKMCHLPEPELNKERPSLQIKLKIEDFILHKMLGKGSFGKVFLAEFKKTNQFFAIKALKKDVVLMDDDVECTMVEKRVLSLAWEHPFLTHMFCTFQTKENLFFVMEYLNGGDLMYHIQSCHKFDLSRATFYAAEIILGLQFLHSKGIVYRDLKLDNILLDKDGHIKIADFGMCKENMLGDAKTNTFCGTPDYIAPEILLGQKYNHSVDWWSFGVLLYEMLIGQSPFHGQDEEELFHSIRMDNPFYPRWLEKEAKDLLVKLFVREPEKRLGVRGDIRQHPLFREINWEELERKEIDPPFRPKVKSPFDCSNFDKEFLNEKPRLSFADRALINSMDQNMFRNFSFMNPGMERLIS

C=CC(=O)N1CCc2ccc(-n3c(=O)ccc4cnc5ccc(-c6cnn(C)c6)cc5c43)cc21 — remaining binding (KINOMEscan; 1 µM; reference: DMSO control): 100%
NC(=O)C[C@H]1CCc2sc3ncnc(O[C@H]4CC[C@H](N5CCOCC5)CC4)c3c21 — inhibition (enzyme activity, inhibitor; 10 µM): -22%
Cc1cccc(O[C@H]2CCC[C@@H](C(C)CNCc3ccncc3)C2)c1 (relative stereo) — inhibition (enzyme activity; 1 µM): 0%
Cc1ccc(-c2c(/C=C(\C#N)C(=O)NC(C)C)n(CCCO)c3ncnc(N)c23)cc1 — remaining binding (cell-free assay, competition with immobilised ligand; 1 µM): 100%
O=C=[N][Ru-4]123([n]4c5ccc(O)cc5c5c6c(c7cc(F)c[n+]1c7c54)C(=O)NC6=O)[S+]1CC[S+]2CC[S+]3CC1 (stereo not drawn) — remaining activity (enzyme activity; 100 nM, human enzyme, together with: 10 µM ATP; reference: untreated): 42%
C=CC(=O)Nc1cccc(-c2cnc3[nH]cc(C(=O)NC(C)(C)C)c3n2)c1 — inhibition (enzyme activity, inhibitor; 0.1 µM): 13%
COCC12C(=O)NC3C4(C(OC)CC1O)C1CC5(O)C(OC)C(O)C(OC(C)=O)(C1C5OC(=O)c1ccccc1)C3(O)C(OC)C24 (stereo not drawn) — remaining activity (kinase activity, inhibitor, ProQinase kinase profiling; 25 µM; reference: control): 129% and 103%
COc1cc(Nc2nccc(-c3cnn4nc(OC)ccc34)n2)cc(C(F)(F)F)c1 — remaining binding (binding, competition with immobilised ligand; 1 µM): 100%
Cc1cnc2nc1Nc1cccc(c1)COC/C=C/COCc1cc(ccc1OCCN1CCOCC1)N2 — remaining binding (binding; 0.1 µM): 100%
Nc1ncc2c(n1)-c1c([nH]c3ccc(C4=CCOCC4)cc13)CCC2 — remaining binding (binding, competition with immobilised ligand; 1 µM): 92%
O=c1c(-c2ccc(Cl)c(CN3CCOCC3)c2)coc2cc(O)ccc12 — remaining activity (enzyme activity, inhibitor; 1 µM): 102%
O=C(O)CCC(=O)c1cccc(NS(=O)(=O)c2c[nH]c3ncccc23)c1 — remaining activity (kinase activity, radiometric; 10 µM): 109%
CCN1CCN(Cc2ccc(C(=O)Nc3ccc(C)c(NCc4cnc5[nH]ccc5c4OC)c3)cc2C(F)(F)F)CC1 — remaining binding (binding, competition with immobilised ligand; 1 µM): 100%
CN1CC[C@@H](COc2cnc(C#N)cc2-c2ccn3nc(NC(=O)C4CC4)cc3c2)C1 — inhibition (enzyme activity, inhibitor; 1 µM): -8%
COc1c(OCCCN2CCOCC2)ccc2c1N=C(NC(=O)c1cnc(N)nc1)N1CCN=C21 — remaining activity (kinase activity, inhibitor; 1 µM; reference: untreated control): 92%
